Measured values pooled from the literature.
Each line is one published result; not all experiments were run side by side. ± gives the spread as reported.

Compound	test	test system	setting	scale	tissue uptake
CC(C)C[C@@H](NC(=O)[C@@H](CCCNC(=N)N)NC(=O)[C@@H](Cc1c[nH]cn1)NC(=O)[C@@H](Cc1c[nH]c2ccccc12)NC(=O)[C@@H](Cc1c[nH]cn1)NC(=O)[C@@H](Cc1ccccc1)NC(=O)[C@H](NC(=O)[C@@H](Cc1ccc(O)cc1)NC(=O)CNC(=O)CNC(=O)CCOCCOCCOCCNC(=O)CN1CCN(CC(=O)O)CCN(CC(=O)O)CC1)[C@H](C)O)C(=O)N[C@H](CC(N)=O)C(=O)N1CCC[C@@H]1C(=O)O [gallium-68 labelled]	dynamic PET	male C57BL/6 mice, tumour	intravenous, 60 min		4.22 ± 0.68 %ID/g
CN[C@](C)(C[18F])C(=O)O		SCID mouse DU-145 xenograft, spleen	30 min, post injection		7.9 ± 0.9 %ID/g
CN(C)c1ccc(C(=O)NCCCCN2CCN(c3ccccc3O[11CH3])CC2)cc1		male Sprague Dawley rat, fat	iv, 30 min	relative to: untreated	0.064 %ID/g
O=C(O)CC[C@H](NC(=O)O[C@@H](CCCCNC(=O)c1ccc([18F])cc1)C(=O)O)C(=O)O		mouse, PC-3 PIP/flu xenografts, spleen	60 min		0.45 ± 0.31 %ID/g
CCNc1cc2[o+]c3cc(NCC)c(C)cc3c(-c3ccccc3C(=O)OCCOCC[18F])c2cc1C		rat, spleen	60 min		2.01 ± 0.61 %ID/g
N=C(N)NCc1ccc(C(=O)NCCCC[C@H](NC(=O)N[C@@H](CCC(=O)O)C(=O)O)C(=O)O)cc1[211At]		SCID mouse, PC-3 xenografts, liver	4 h		4.37 ± 2.96 %ID/g
COc1ccc(C)cc1NC(=O)OC1CC2CCCC(C1)N2Cc1ccc(CC[18F])cc1 (stereo not drawn)		BALB/c mice, EMT6 tumour, muscle	1 h		1.92 ± 0.51 %ID/g
COc1cc2ncnc(Oc3cccc(N[11C](=O)Nc4cc(C(C)(C)C(F)(F)F)on4)c3)c2cc1OC		Balb/c nude mouse, female, A375 melanoma xenograft, pancreas	6.6 MBq, 60 min		6.97 ± 0.33 %ID/g
O=C(c1ccc(F)cc1)C1CCN(C2Cc3c(cccc3OCC[18F])CC2O)CC1 (single isomer, unassigned; (-))		Sprague-Dawley rat, male, heart	intravenous, dose not given, 60 min		0.357 ± 0.068 %ID/g
N=C(N)NCc1ccc(C(=O)NCCCC[C@H](NC(=O)N[C@@H](CCC(=O)O)C(=O)O)C(=O)O)cc1[131I]		SCID mouse, PC-3 xenografts, stomach	2 h		0.6 ± 0.15 %ID/g
C[S]1CC[S]2CC[P](CO)(CO)[99Tc+]12.[C-]#[O+].[C-]#[O+].[C-]#[O+]		CF-1 mice, female, feces	intravenous, 24 h		26 %ID
CCN(CC)c1ccc2c(-c3ccccc3C(=O)OCCC[18F])c3ccc(=[N+](CC)CC)cc-3oc2c1		rat, muscle	60 min		0.3 ± 0.01 %ID/g
N=C(N)NCc1ccc(C(=O)NCCCC[C@H](NC(=O)CCCCCCC(=O)NCCCC[C@H](NC(=O)N[C@@H](CCC(=O)O)C(=O)O)C(=O)O)C(=O)O)cc1[211At]		SCID mouse, PC-3 xenografts, heart	2 h		0.76 ± 0.11 %ID/g
CCCC[C@H](NC(=O)CN1CCC(NC(=O)CN2CCC(NC(=O)CN3CCN(CC(=O)O)CCN(CC(=O)O)CCN(CC(=O)O)CC3)CC2)CC1)C(=O)N[C@H]1CC(=O)NCCCC[C@@H](C(N)=O)NC(=O)[C@H](Cc2c[nH]c3ccccc23)NC(=O)[C@H](CCCNC(=N)N)NC(=O)[C@@H](Cc2ccccc2)NC(=O)[C@H](Cc2c[nH]cn2)NC1=O [gallium-68 labelled]		C57BL/6J mice male B16-F10 tumour, stomach	1 h post injection, unblocked		2.8 ± 3.8 %ID/g
CCN(CC)c1ccc2c(-c3ccccc3C(=O)OCCOCC[18F])c3ccc(=[N+](CC)CC)cc-3oc2c1		rat, muscle	60 min		0.54 ± 0.07 %ID/g
COc1ccc(NC(=O)Cn2c(=O)c3ccccc3n(CC(=O)Nc3cc([125I])c(OC)cc3OC)c2=O)cc1		Wistar rat (normal), fat	intravenous, 0.08333 h		0.07 ± 0.02 %ID/g
C=Cc1cc(O)cc2nc(-c3ccc(O)c([76Br])c3)oc12		female C57BL/6 mouse, blood	1 h, high dose, added: estradiol 20 µg blocking		0.41 ± 0.1 %ID/g
N=C(N)NCc1ccc(C(=O)NCCCC[C@H](NC(=O)CCCCCCC(=O)NCCCC[C@H](NC(=O)N[C@@H](CCC(=O)O)C(=O)O)C(=O)O)C(=O)O)cc1[131I]		SCID mouse, PC-3 xenografts, spleen	1 h		9.83 ± 3.28 %ID/g
